Measurements pooled from the literature.
Protocols differ between the studies behind these lines. Several values in a cell are separate wells, animals, samples, runs or records. ± gives the spread as reported.

Structure (SMILES) | target or system | assay | test system | setting | scale | endpoint | result
CN(CCC#N)C(=O)c1ccc([C@H]2[C@@H](F)[C@@H](F)C[C@@H](F)[C@H]2F)cc1 |  | hepatocyte stability | cryopreserved rat hepatocytes | 1 µM |  | hepatic clearance | 20 mL/min/kg
Cc1c(-c2c(-c3ccc(F)o3)sc3ncnc(O[C@H](Cc4ccccc4OCc4ccnn4CC(F)(F)F)C(=O)O)c23)ccc(OCCN2CCN(C)CC2)c1Cl | U-937 | CellTiter-Glo |  | concentration not given, single agent, 5% FBS |  | viability | inactive
CCCCCCCCCCCCCC(=O)N[C@@H](CCSC)C(=O)N[C@@H](C)C(=O)N[C@@H](CO)C(=O)N[C@@H](CCCNC(=N)N)C(=O)NCC(=O)N[C@@H](C)C(=O)N[C@@H](CC(C)C)C(=O)N[C@@H](CCCNC(=N)N)C(=O)N[C@@H](CCCNC(=N)N)C(=O)N[C@@H](CS)C(=O)N[C@@H](CC(C)C)C(=O)N[C@@H](CO)C(=O)N1CCC[C@H]1C(=O)NCC(=O)N[C@@H](CC(C)C)C(=O)N1CCC[C@H]1C(=O)N[C@@H](CCCNC(=N)N)C(=O)N[C@@H](CC(C)C)C(=O)N[C@@H](CC(C)C)C(=O)N[C@@H](Cc1c[nH]cn1)C(=O)N[C@@H](CC(C)C)C(=O)N[C@@H](CO)C(=O)N[C@@H](CCCNC(=N)N)C(=O)NCC(=O)N[C@@H](CC(C)C)C(=O)N[C@@H](C)C(N)=O | U-937 | cell viability, XTT |  | concentration not given, lymphoma |  | viability | inhibited
Nc1cccc2c1C(=O)N(C1CCC(=O)NC1=O)C2=O (centres unmarked) | MM1.S resistant to compound | XTT |  | 0.6 µM |  | viability | 101% and 62% and 55%
COc1ccc(-n2nc(C(C)=O)s/c2=N\N=C(/C)c2ccc(NC(=O)c3ccc(Cl)cc3)cc2)cc1 | MCF7 |  |  | 0.078 µM |  | viability | 84.8%
CC(=O)Nc1cccc(-n2c(=O)n(C3CC3)c(=O)c3c(Nc4ccc(I)cc4F)n(C)c(=O)c(C)c32)c1 | LoVo (KRAS G13D) | resazurin |  | 50.00 nM, 72 h | baseline: DMSO | viability | 45.3%
CC(=O)c1nn(-c2ccc(Cl)cc2)/c(=N/N=C(\C)c2ccc(NC(=O)c3ccc(C)cc3)cc2)s1 | MCF7 |  |  | 10 µM |  | viability | 5.22%
O=C(C[C@@H](C(F)F)n1ccc(F)n1)N1CCC(O)(Cn2cnc3c(cnn3-c3ccc(F)cc3)c2=O)CC1 | CHP-212 USP7 V517F knock-in clone | SRB |  | 0.003048 µM |  | viability | 101%
Cc1cccc(-c2[nH]c(CNc3ccccc3F)nc2-c2ccc3ncnn3c2)n1 | MM1.S | XTT |  | 0.8 µM | baseline: untreated | viability | 72%
O=C(O[C@@H]1COC(=O)c2cc(O)c(O)c(O)c2-c2c(cc(O)c(O)c2O)C(=O)O[C@H]1[C@@H]1OC(=O)c2cc(O)c(O)c(O)c2-c2c(O)c(O)c(O)c3c2C(=O)O[C@H]1[C@@H]3O)c1cc(O)c(O)c(O)c1 | SH-SY5Y | neuroprotection, MTT |  | 10.7 µM, 24 h, with: H2O2 100 µM |  | viability | 73.7 ± 2.04%
O=C(Cc1cccnc1)Nc1ccc([C@H]2[C@@H](F)[C@@H](F)C[C@@H](F)[C@H]2F)cc1 |  |  | mouse liver microsomes | 1 µM |  | hepatic clearance | 43 mL/min/kg

For quick reference, copied from above:
Structure (SMILES) | target or system | assay | test system | setting | scale | endpoint | result
CC(=O)Nc1cccc(-n2c(=O)n(C3CC3)c(=O)c3c(Nc4ccc(I)cc4F)n(C)c(=O)c(C)c32)c1 | LoVo (KRAS G13D) | resazurin |  | 50.00 nM, 72 h | baseline: DMSO | viability | 45.3%
